Assay results of several laboratories.
Lines come from different studies, so protocols differ. pEC50: −log10 of the molar value.
VHL/BRD9 with Elongin B/C: VHL/BRD9, with Elongin B/C (Homo sapiens, UniProt P40337+Q9H8M2)
CALCR: Calcitonin receptor (CALCR, Homo sapiens, UniProt P30988)

With `CC(=O)NCC1CCCCN1c1nc(NCC2Cc3ccccc3O2)nc(N2CC3C(CCOc4cc(-c5scnc5C)ccc4CNC(=O)C4CC(O)CN4C(=O)C(NC(=O)C4(F)CC4)C(C)(C)C)C3C2)n1` (stereo not drawn) the pEC50 was 6.24 (VHL/BRD9 with Elongin B/C; ternary complex formation, AlphaScreen; added: 50 nM His-BRD9 and 20 nM biotin-VCB).
The pEC50 of `Cc1cccc(Oc2ccc(-n3c(=O)[nH]c4cccnc43)cn2)c1C` is reported as 5.82 (KCNC1 (Homo sapiens, UniProt P48547); ion current, activator, automated patch clamp; HEK293 expressing Kv3.1; holding -70 mV, test -15 mV).
With `O=Cc1ccc([N+](=O)[O-])c(OS(=O)(=O)c2ccc(Cl)cc2)c1` the pEC50 was less than 3.00 (YWHAG/RELA, phospho-Ser45 p65 peptide (Homo sapiens, UniProt P61981+Q04206); ternary complex formation, stabilizer, fluorescence anisotropy).
`CC[C@H](C)[C@@H](C(=O)N[C@@H](CC(C)C)C(=O)N[C@@H](CO)C(=O)N[C@@H](CO)C(=O)N[C@H](C(=O)N[C@@H](CC(N)=O)C(=O)N[C@H](C(=O)NCC(=O)N[C@@H](CO)C(=O)N[C@@H](CC(N)=O)C(=O)N[C@H](C(=O)N1CCC[C@H]1C(N)=O)[C@@H](C)O)C(C)C)[C@@H](C)O)N(C)C(=O)[C@H](C)NC(=O)CN(C)C(=O)[C@H](Cc1ccccc1)NC(=O)[C@H](CC(N)=O)NC(=O)[C@H](CC(N)=O)NC(=O)[C@H](CO)NC(=O)[C@H](CO)NC(=O)[C@H](CCCNC(=N)N)NC(=O)[C@H](Cc1c[nH]cn1)NC(=O)[C@H](CC(C)C)NC(=O)[C@H](Cc1ccccc1)NC(=O)[C@H](CCC(=O)O)NC(=O)[C@H](C)NC(=O)[C@H](CC(C)C)NC(=O)[C@H](CCCNC(=N)N)NC(=O)[C@H](CCC(N)=O)NC(=O)[C@@H](NC(=O)[C@H](C)NC(=O)[C@@H]1CSSC[C@H](NC(=O)[C@H](CCCNC(=N)N)NC(=O)CC[C@H](NC(=O)CCCCCCCCCCCCCCCCCCC(=O)O)C(=O)O)C(=O)N[C@@H](CC(N)=O)C(=O)N[C@@H]([C@@H](C)O)C(=O)N[C@@H](C)C(=O)N[C@@H]([C@@H](C)O)C(=O)N1)[C@@H](C)O` has a pEC50 of 10.10 (CALCR; cAMP, agonist).
`COc1cc(C2C(NC(=O)c3ccc(NC(=O)OC(C)(C)C)cc3)(C(=O)O)C(c3ccc(OC(=O)c4cccs4)c(OC)c3)C2(NC(=O)c2ccc(NC(=O)OC(C)(C)C)cc2)C(=O)O)ccc1OC(=O)c1cccs1` (stereo not drawn) gave a pEC50 of 6.42 (GLP1R (Homo sapiens, UniProt P43220, L201A); cAMP, agonist).
`CC[C@H](C)[C@@H](C(=O)N[C@@H](CC(C)C)C(=O)N[C@@H](CO)C(=O)N[C@@H](CO)C(=O)N[C@H](C(=O)N[C@@H](CCC(=O)O)C(=O)N[C@H](C(=O)NCC(=O)N[C@@H](CO)C(=O)N[C@@H](CC(N)=O)C(=O)N[C@H](C(=O)N1C[C@H](O)C[C@H]1C(N)=O)[C@@H](C)O)C(C)C)[C@@H](C)O)N(C)C(=O)[C@H](C)NC(=O)CN(C)C(=O)[C@H](Cc1ccccc1)NC(=O)[C@H](CO)NC(=O)[C@H](CO)NC(=O)[C@H](CCCNC(=N)N)NC(=O)[C@H](CCC(N)=O)NC(=O)[C@H](CC(C)C)NC(=O)[C@H](Cc1ccccc1)NC(=O)[C@H](Cc1c[nH]cn1)NC(=O)[C@H](C)NC(=O)[C@H](CC(C)C)NC(=O)[C@H](CCCNC(=N)N)NC(=O)[C@H](CCC(=O)O)NC(=O)[C@@H](NC(=O)[C@H](C)NC(=O)[C@@H]1CCC(=O)NCC[C@H](NC(=O)[C@H](CCCNC(=N)N)NC(=O)CC[C@H](NC(=O)CCCCCCCCCCCCCCCCCCC(=O)O)C(=O)O)C(=O)NCC(=O)N[C@@H]([C@@H](C)O)C(=O)N[C@@H](C)C(=O)N[C@@H]([C@@H](C)O)C(=O)N1)[C@@H](C)O` gave a pEC50 of 7.39 (CALCR; cAMP, agonist).
The pEC50 of `O=C(Cc1ccc(OCc2ccccc2)cc1)NC1(C(=O)O)CCN(C(=O)c2ccc(-c3cccc(Cl)c3)cc2)CC1` is reported as less than 5.00 (CHRM1 (Homo sapiens, UniProt P11229); inositol phosphate, agonist).
The pEC50 of `CC[C@H](C)[C@@H](C(=O)N[C@@H](CC(C)C)C(=O)N[C@@H](CO)C(=O)N[C@@H](CO)C(=O)N[C@H](C(=O)N[C@@H](CCC(=O)O)C(=O)N[C@H](C(=O)NCC(=O)N[C@@H](CO)C(=O)N[C@@H](CC(N)=O)C(=O)N[C@H](C(=O)N1C[C@H](O)C[C@H]1C(N)=O)[C@@H](C)O)C(C)C)[C@@H](C)O)N(C)C(=O)[C@H](C)NC(=O)CN(C)C(=O)[C@H](Cc1ccccc1)NC(=O)[C@H](CO)NC(=O)[C@H](CO)NC(=O)[C@H](CCCNC(=N)N)NC(=O)[C@H](CCC(N)=O)NC(=O)[C@H](CC(C)C)NC(=O)[C@H](Cc1ccccc1)NC(=O)[C@H](Cc1c[nH]cn1)NC(=O)[C@H](C)NC(=O)[C@H](CC(C)C)NC(=O)[C@H](CCCNC(=N)N)NC(=O)[C@H](CCC(=O)O)NC(=O)[C@@H](NC(=O)[C@H](C)NC(=O)[C@@H]1CCCC(=O)NC[C@H](NC(=O)[C@H](CCCNC(=N)N)NC(=O)CC[C@H](NC(=O)CCCCCCCCCCCCCCCCCCC(=O)O)C(=O)O)C(=O)NCC(=O)N[C@@H]([C@@H](C)O)C(=O)N[C@@H](C)C(=O)N[C@@H]([C@@H](C)O)C(=O)N1)[C@@H](C)O` is reported as 9.25 (CALCR; cAMP, agonist).
For `C#CCN1CCN(c2nc(N3CCN(c4ccc(Cc5cc(CNC(=O)[C@@H]6C[C@@H](O)CN6C(=O)[C@@H](NC(=O)C6(F)CC6)C(C)(C)C)c(O)cc5-c5scnc5C)cc4)CC3)nc(N3CCN(C(=O)C4CC4)C3)n2)CC1=O`, the pEC50 was 6.80 (VHL/BRD9 (Homo sapiens, UniProt P40337+Q9H8M2); ternary complex formation, NanoBiT; HEK293T; 2 h, added: MLN4924 2 µM).
The pEC50 of `COc1ccc2[nH]c(-c3cccc4ccccc34)c(CCNC(=O)CI)c2n1` is reported as 5.32 (MTNR1B (Homo sapiens, UniProt P49286); β-arrestin recruitment, agonist).
`CC[C@H]1CN([C@@H](CC)c2ccc(C(F)(F)F)cc2)[C@H](CC)CN1c1nc(=O)n(C)c2ccc(C#N)nc12` gave a pEC50 of 8.10 (DGKZ (Homo sapiens, UniProt Q13574); membrane translocation, high-content imaging; Jurkat, DGKζ-YFP; 1 h).
`CC(=O)NCC1CCCCN1c1nc(NCCn2nnc(C)n2)nc(N2CC3C(CCOc4cc(-c5scnc5C)ccc4CNC(=O)[C@@H]4C[C@@H](O)CN4C(=O)[C@@H](NC(=O)C4(F)CC4)C(C)(C)C)C3C2)n1` (stereo partly drawn) gave a pEC50 of 7.10 (VHL/BRD9 with Elongin B/C; ternary complex formation, AlphaScreen; added: 50 nM His-BRD9 and 20 nM biotin-VCB).

Excerpt of the above:
`CC[C@H]1CN([C@@H](CC)c2ccc(C(F)(F)F)cc2)[C@H](CC)CN1c1nc(=O)n(C)c2ccc(C#N)nc12` gave a pEC50 of 8.10 (DGKZ (Homo sapiens, UniProt Q13574); membrane translocation, high-content imaging; Jurkat, DGKζ-YFP; 1 h).
`CC(=O)NCC1CCCCN1c1nc(NCCn2nnc(C)n2)nc(N2CC3C(CCOc4cc(-c5scnc5C)ccc4CNC(=O)[C@@H]4C[C@@H](O)CN4C(=O)[C@@H](NC(=O)C4(F)CC4)C(C)(C)C)C3C2)n1` (stereo partly drawn) gave a pEC50 of 7.10 (VHL/BRD9 with Elongin B/C; ternary complex formation, AlphaScreen; added: 50 nM His-BRD9 and 20 nM biotin-VCB).
